Measured values pooled from the literature.
Compare with care: the assays were run in different laboratories. ± marks the error that the study gave.
MCA2: Metacaspase-2 (MCA2, Trypanosoma brucei brucei, UniProt Q585F3)
Sequence of UniProt Q585F3 (whole entry, looked up): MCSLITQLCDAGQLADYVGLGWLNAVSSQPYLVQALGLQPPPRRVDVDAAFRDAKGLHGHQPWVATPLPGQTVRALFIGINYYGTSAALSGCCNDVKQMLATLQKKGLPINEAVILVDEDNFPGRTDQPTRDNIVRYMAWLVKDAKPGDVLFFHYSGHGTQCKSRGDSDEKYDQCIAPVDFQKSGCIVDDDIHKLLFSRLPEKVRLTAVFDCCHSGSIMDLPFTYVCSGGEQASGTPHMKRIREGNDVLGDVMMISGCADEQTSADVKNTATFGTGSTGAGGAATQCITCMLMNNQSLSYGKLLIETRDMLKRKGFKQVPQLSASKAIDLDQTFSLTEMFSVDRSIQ
blaNDM-1: Metallo-beta-lactamase type 2 (blaNDM-1, Klebsiella pneumoniae, UniProt C7C422)
Sequence of UniProt C7C422 (whole entry, looked up): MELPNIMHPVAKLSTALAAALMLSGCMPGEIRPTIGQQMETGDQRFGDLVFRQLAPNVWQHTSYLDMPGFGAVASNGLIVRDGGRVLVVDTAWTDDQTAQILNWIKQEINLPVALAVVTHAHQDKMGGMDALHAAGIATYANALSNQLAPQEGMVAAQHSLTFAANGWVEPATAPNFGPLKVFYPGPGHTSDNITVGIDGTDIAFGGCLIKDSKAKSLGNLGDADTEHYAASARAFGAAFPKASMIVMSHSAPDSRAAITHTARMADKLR
Sequence of UniProt P28566 (whole entry, looked up): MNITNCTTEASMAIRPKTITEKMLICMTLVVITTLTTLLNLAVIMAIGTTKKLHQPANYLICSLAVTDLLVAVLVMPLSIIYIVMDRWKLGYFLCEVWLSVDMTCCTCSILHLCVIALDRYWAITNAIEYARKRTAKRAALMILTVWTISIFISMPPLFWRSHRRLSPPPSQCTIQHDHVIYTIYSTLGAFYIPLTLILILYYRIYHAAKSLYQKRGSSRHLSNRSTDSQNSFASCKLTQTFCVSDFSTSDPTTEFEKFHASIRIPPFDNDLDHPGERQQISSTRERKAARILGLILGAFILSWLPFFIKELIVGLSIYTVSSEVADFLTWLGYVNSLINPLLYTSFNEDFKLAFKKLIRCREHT
Sequence of UniProt P33535 (whole entry, looked up): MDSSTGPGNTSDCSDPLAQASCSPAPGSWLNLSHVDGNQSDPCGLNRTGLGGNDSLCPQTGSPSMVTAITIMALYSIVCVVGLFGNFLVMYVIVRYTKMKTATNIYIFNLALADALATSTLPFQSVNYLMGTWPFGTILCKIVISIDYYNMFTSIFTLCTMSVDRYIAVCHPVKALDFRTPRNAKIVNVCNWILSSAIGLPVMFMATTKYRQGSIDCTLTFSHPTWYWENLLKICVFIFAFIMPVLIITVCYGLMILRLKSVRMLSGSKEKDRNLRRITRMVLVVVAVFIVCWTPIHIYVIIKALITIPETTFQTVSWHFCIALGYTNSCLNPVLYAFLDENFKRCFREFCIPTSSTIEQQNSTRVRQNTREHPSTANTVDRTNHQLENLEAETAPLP
Sequence of UniProt Q16549 (whole entry, looked up): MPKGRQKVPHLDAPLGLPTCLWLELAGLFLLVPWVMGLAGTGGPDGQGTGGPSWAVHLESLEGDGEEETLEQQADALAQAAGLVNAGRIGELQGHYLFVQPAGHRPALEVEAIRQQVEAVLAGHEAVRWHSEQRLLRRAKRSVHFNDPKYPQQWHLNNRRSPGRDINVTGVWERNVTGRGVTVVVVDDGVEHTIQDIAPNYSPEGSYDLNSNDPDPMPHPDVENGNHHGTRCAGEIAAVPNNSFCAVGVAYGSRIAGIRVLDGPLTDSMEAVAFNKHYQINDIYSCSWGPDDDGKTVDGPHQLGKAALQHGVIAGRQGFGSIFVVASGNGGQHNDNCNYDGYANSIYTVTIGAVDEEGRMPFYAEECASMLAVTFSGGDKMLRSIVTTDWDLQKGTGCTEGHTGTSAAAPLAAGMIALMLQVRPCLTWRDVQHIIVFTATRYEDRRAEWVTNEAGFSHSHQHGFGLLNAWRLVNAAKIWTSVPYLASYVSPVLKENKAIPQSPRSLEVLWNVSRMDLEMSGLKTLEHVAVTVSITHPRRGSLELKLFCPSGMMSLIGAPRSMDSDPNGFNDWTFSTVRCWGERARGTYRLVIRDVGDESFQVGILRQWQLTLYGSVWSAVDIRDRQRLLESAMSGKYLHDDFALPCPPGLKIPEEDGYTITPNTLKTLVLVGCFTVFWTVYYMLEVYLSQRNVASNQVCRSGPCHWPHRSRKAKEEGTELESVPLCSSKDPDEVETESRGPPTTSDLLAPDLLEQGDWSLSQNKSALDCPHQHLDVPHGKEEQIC
Sequence of UniProt P08913 (whole entry, looked up): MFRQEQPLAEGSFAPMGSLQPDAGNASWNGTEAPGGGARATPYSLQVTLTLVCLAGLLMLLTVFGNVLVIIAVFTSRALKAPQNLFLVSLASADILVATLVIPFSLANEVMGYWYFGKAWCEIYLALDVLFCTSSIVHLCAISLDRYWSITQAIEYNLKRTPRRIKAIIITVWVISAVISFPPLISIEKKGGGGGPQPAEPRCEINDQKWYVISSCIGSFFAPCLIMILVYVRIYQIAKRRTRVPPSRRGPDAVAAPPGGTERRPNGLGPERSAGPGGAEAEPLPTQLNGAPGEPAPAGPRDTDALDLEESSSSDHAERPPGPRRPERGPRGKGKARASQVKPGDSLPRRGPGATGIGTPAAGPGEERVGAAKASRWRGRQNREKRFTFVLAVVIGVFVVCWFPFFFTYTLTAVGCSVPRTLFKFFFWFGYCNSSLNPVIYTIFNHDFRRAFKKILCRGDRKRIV
Sequence of UniProt P41143 (whole entry, unmodified, looked up): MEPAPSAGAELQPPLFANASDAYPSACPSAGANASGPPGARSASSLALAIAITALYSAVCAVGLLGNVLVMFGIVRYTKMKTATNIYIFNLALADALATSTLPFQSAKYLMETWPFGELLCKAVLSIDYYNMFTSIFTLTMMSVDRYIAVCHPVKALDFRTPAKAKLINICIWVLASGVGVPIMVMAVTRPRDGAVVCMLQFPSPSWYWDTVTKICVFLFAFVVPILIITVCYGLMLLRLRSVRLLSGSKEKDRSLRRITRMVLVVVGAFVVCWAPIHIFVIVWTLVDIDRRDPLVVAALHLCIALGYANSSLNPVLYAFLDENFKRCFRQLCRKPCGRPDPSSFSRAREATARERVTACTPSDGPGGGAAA

Structure (SMILES)	target	assay	system	conditions	Ki [µM]
CC(=O)N[C@@H](CC(C)C)C(=O)N[C@@H](CCCN=C(N)N)C(=O)N[C@H](C(=O)N[C@@H](CCCCN)C(=O)N[C@@H](CCCN=C(N)N)C(N)=O)C(C)C	Proprotein convertase subtilisin/kexin type 7 (Homo sapiens, UniProt Q16549)	enzyme activity, inhibitor			2.2
CC(C)[C@H](NC(=O)[C@H](C)NC(=O)[C@H](CCCCN)NC(=O)c1ccccc1N)C(=O)N[C@@H](CO)C(=O)N[C@@H](CO)C(=O)N[C@@H](C)C(=O)N[C@@H](CCC(N)=O)C(=O)NCCNc1ccc([N+](=O)[O-])cc1[N+](=O)[O-]	MCA2	enzyme activity, competitive inhibitor	Trypanosoma brucei	added: Z-FR-AMC substrate	8.4
Cc1cc(O)cc(C)c1C[C@H](N)C(=O)N[C@H](CCCNC(=N)N)C(=O)N[C@@H](Cc1ccccc1)C(=O)N(C)CC(=O)N(C)Cc1cc(C(F)(F)F)cc(C(F)(F)F)c1	Delta-type opioid receptor (OPRD1, Homo sapiens, UniProt P41143, W274F)				0.0301 ± 0.0049
CC[C@H](C)[C@@H]1NC(=O)[C@@H]2CCCN2C(=O)[C@@H](CS)NC(=O)[C@H](Cc2ccc(O)cc2)NC(=O)[C@@H](CCCNC(=N)N)NC(=O)[C@@H]([C@H](C)O)NC(=O)[C@H](CCC(=O)O)NC(=O)[C@@H]2CCCN2C1=O	blaNDM-1	enzyme activity, inhibitor		added: nitrocefin 1.5 µM	6.49
C[C@H](NC(=O)[C@H](C)NC(=O)[C@H](CCCCN)NC(=O)c1ccccc1N)C(=O)N[C@@H](CO)C(=O)N[C@@H](CO)C(=O)N[C@@H](C)C(=O)N[C@@H](CCC(N)=O)C(=O)NCCNc1ccc([N+](=O)[O-])cc1[N+](=O)[O-]	MCA2	enzyme activity, competitive inhibitor	Trypanosoma brucei	added: Z-FR-AMC substrate	7.5
NCC[C@H]1NC(=O)[C@@H](CCC(N)=O)NC(=O)[C@H](CCC(=O)O)NC(=O)[C@@H]2CCCN2C(=O)[C@H](C(c2ccccc2)c2ccccc2)NC(=O)[C@@H]2CCCN2C(=O)[C@H]2CCCN2C(=O)[C@H](CCC(N)=O)NC1=O	blaNDM-1	enzyme activity, inhibitor		added: nitrocefin 1.5 µM	152
O=C1c2ccccc2CCCN1CCCCN1CCN(c2cccc(Cl)c2Cl)CC1	5-hydroxytryptamine receptor 1E (HTR1E, Homo sapiens, UniProt P28566)	ligand displacement, radioligand			4.37
CC(C)C[C@H](NC(=O)[C@H](CCCCN)NC(=O)[C@H](CCCCN)NC(=O)Cc1cccc(CNC(=O)[C@H](C)NC(=N)N)c1)B(O)O	Genome polyprotein, NS2B-NS3 protease (ZIKV, UniProt A0A024B7W1)	inhibitor	Zika virus		0.0114 ± 0.0006
Cc1cc(O)cc(C)c1CCC(=O)N[C@@H]1CCCCC[C@@H](C(N)=O)NC(=O)[C@H](Cc2ccccc2)NC(=O)[C@H](Cc2ccccc2)NC1=O	Mu-type opioid receptor (Oprm1, Rattus norvegicus, UniProt P33535)	ligand displacement, radioligand		cell membranes	0.00895
CN(C)[C@H](CNC(=O)/C=C/c1cccc2ccccc12)Cc1ccc(O)cc1	Alpha-2A adrenergic receptor (ADRA2A, Homo sapiens, UniProt P08913)	cell-free assay			1.8

A few entries again:
Structure (SMILES)	target	assay	system	conditions	Ki [µM]
NCC[C@H]1NC(=O)[C@@H](CCC(N)=O)NC(=O)[C@H](CCC(=O)O)NC(=O)[C@@H]2CCCN2C(=O)[C@H](C(c2ccccc2)c2ccccc2)NC(=O)[C@@H]2CCCN2C(=O)[C@H]2CCCN2C(=O)[C@H](CCC(N)=O)NC1=O	blaNDM-1	enzyme activity, inhibitor		added: nitrocefin 1.5 µM	152
